# Results collected from several papers.
# Every numbered part comes from another study and shows a few of its results, in no order. Changes are numbered by the printed parent chain.

# Set 1
# Target: Ras GTPase-activating protein-binding protein 1, C-terminal RGG region (G3BP1, Homo sapiens, UniProt Q13283)
# Sequence of UniProt Q13283 (whole entry, looked up): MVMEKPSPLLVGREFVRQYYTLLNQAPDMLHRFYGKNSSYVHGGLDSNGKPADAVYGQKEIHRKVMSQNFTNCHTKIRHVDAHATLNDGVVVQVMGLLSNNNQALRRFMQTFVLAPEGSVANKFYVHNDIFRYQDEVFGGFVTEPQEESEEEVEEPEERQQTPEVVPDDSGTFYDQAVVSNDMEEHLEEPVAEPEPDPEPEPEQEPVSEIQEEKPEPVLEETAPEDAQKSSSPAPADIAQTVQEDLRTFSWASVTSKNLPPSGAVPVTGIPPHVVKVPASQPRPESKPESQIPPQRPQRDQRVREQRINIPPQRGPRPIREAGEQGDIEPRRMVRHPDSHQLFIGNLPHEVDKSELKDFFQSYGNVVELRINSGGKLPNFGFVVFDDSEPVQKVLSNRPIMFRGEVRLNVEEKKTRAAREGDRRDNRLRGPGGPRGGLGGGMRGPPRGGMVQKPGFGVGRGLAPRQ
# Technique: RNA Bind-n-Seq
# Form: RNA
# Medium: in vitro
# Tested at: 1 µM
# Notes: whole 134-nt RNA, ends assumed
# Added: 150 mM KCl
# Reference: input library
# Reading: higher = stronger binding
Sequence,log2 enrichment
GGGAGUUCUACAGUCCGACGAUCUAACUUUAGAGGAGGAUCUGAUGGAUAUGGCAGUGGACGUGGAUUUGGGGAUGGCUACAAUGGGUAUGGAGGAGGACCUGGAGGUGGCAAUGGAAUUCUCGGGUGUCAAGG,-0.921
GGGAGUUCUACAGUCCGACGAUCUGGCCCUGGUGGCUUGCGGGGAGGAAGAGGUGGCCUCAUGGAUCGUGGUGGUCCCGGUGGAAUGUUCAGAGGUGGCCGUGGUGGAGACAGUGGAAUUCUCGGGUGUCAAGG,2.11
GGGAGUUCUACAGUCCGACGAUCUUCCUCAAGUCCUGUGCUACACAUCGUAUGUACCGAAUCGGUGGGUGGUGGAAAGUAUUAUGUUACGCCGUUCGGAUCUGCACUUCCAGCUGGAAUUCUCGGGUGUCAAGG,-0.344
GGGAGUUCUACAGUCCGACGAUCUUUGUAGAGCAGCCCGACGGCCAUGGAGGCUGAAGAGACGAUGGAAUGCCUUCAGGAGUUCCCUGAACAUCAUAAAAUGAUCCUCGACCGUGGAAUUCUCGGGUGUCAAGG,-0.698
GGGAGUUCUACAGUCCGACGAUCUGGGAGGUGGAUUUUGUUUAUUUUUUUAGCUCAUUUCCAGGCGUGGGAAUUUUUUUUUAAUAUGUGUCAUGAAUAAAGUUGUUUUUGAAAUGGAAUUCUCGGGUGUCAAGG,3.08
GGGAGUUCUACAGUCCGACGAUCUCCUGUGCUACACAUCGUAUGUACCGAAUCGGGCCCCCGGGCCCCCGGGGCCCCCGGGGAAAGUAUUAUGUUACGCCGUUCGGAUCUGCAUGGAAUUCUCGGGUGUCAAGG,-1.63
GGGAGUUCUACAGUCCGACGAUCUCCUGUGCUACACAUCGUAUGUACCGAAUCGGGGCCCCCGGGGCCCCCGGCCCCCGGGGAAAGUAUUAUGUUACGCCGUUCGGAUCUGCAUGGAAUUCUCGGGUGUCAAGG,-1.85
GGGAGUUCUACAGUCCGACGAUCGUCCUGUGCUACACAUCGUAUGUACCGAAUCGGAAAAAAAGGUUUUUGGUUUUUUUGGAAAGUAUUAUGUUACGCCGUUCGGAUCUGCACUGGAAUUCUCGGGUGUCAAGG,-1.98
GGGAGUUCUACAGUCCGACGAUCCAAGUCCUGUGCUACACAUCGUAUGUACCGAAUCGGGUGGGUUUGGGUUUUUGGGAAAGUAUUAUGUUACGCCGUUCGGAUCUGCACUUCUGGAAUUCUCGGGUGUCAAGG,1.22

# Set 2
# Target: Sal-like protein 4, full length isoform A (SALL4, Homo sapiens, UniProt Q9UJQ4, residues 1-1053)
# Sequence of UniProt Q9UJQ4 (whole entry, looked up): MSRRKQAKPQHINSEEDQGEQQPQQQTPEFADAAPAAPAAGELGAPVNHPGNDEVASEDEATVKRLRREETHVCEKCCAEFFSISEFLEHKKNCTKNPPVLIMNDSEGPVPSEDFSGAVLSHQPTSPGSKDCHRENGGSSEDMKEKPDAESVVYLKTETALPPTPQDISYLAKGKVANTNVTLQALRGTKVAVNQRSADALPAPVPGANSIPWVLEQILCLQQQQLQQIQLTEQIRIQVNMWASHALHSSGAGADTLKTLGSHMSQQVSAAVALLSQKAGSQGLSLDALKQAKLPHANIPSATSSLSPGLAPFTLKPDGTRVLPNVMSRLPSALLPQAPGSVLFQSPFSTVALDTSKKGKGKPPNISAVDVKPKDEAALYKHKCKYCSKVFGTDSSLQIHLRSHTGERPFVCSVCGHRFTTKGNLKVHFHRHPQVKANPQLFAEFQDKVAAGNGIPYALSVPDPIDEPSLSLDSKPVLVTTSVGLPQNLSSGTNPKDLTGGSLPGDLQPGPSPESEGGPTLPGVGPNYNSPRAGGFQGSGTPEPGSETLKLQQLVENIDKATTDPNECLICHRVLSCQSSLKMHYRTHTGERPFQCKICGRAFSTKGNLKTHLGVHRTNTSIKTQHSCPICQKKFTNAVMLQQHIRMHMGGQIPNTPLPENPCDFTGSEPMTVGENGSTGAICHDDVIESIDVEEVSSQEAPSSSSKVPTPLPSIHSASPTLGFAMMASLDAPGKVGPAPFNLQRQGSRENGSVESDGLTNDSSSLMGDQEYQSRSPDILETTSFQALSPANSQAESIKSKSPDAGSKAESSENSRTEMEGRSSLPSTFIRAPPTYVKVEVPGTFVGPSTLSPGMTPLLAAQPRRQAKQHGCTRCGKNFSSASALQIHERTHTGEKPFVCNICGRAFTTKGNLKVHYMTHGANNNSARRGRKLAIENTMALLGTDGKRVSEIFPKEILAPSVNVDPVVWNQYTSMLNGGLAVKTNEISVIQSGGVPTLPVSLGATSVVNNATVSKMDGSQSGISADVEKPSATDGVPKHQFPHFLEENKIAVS
# Technique: universal PBM
# Form: double-stranded DNA, one strand shown
# Medium: in vitro
# Tested at: 600 nM
# Notes: 8-mer, flanks averaged, mean of replicates
# Reading: higher = stronger binding
Sequence,E-score
GAAAAAGC,0.0153
CTAACCAA,0.0961
AACTACGT,0.138
GTAAATGA,0.201
AGATAGTA,0.191
AGGTGCAT,0.0459
CCGGGGGC,-0.429

# Set 3
# Target: CCND3, cyclin fold, Cln2 fusion (human)
# Technique: yeast growth competition, sequencing
# Medium: yeast
# Notes: weak parent motif
# Reference: not given
# Reading: higher = stronger binding
# Parent: RBL1 docking peptide (human); GSAKRRLFGEDPP
Substitution,normalised enrichment score
D11Y,0.237
G9D,0.176
G1H,0.159
E10K,0.145
F8N,0.15

# Other studies, line by line
Molecule,target,assay,system,setting,how to read,endpoint,result
"PhoQ, residues 284 288 289 292 302 303 ASTSDA","PhoP, residues 12 14 15 18 19 VQALL (Escherichia coli, UniProt P23836)","Sort-seq, item: YFP reporter",E. coli,"PhoQ-PhoP variant library, added: 10 µM Mg2+","reference: high Mg2+ state, higher = stronger signaling",fold induction,11.3

# Repeated from above (set 1):
Sequence,log2 enrichment
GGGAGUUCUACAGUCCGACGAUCUGGGAGGUGGAUUUUGUUUAUUUUUUUAGCUCAUUUCCAGGCGUGGGAAUUUUUUUUUAAUAUGUGUCAUGAAUAAAGUUGUUUUUGAAAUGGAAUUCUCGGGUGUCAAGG,3.08
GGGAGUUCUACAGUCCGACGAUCUCCUGUGCUACACAUCGUAUGUACCGAAUCGGGCCCCCGGGCCCCCGGGGCCCCCGGGGAAAGUAUUAUGUUACGCCGUUCGGAUCUGCAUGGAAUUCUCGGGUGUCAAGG,-1.63
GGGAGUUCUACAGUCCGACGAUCUGGCCCUGGUGGCUUGCGGGGAGGAAGAGGUGGCCUCAUGGAUCGUGGUGGUCCCGGUGGAAUGUUCAGAGGUGGCCGUGGUGGAGACAGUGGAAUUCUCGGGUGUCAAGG,2.11
